Published values of several laboratories.
Parts stem from different laboratories: compare values within a part only. Changes are numbered by the printed parent chain.

Set 1
Target: CCNF, cyclin fold, Cln2 fusion (human)
Method: yeast growth competition, sequencing
Sample: yeast
Notes: strong parent motif
Baseline: not given
Reading: higher = stronger binding
Parent: WEE1 docking peptide (human); HKTFRKLRLFDTP
For `HKTFRKKRLFDTP [L7K]`, “normalised enrichment score” read 0.89.
For `HKTFRKLRLNDTP [F10N]`, “normalised enrichment score” read 1.14.
`HKTFRKLRLFLTP [D11L]` — result for “normalised enrichment score”: 2.59.
Under “normalised enrichment score”, `HKTFRKLDLFDTP [R8D]` is recorded as 2.48.
Under “normalised enrichment score”, `HKTFRKLRLFDQP [T12Q]` is recorded as 0.863.
`HKQFRKLRLFDTP [T3Q]`: “normalised enrichment score” 1.73.
`HKRFRKLRLFDTP [T3R]`: “normalised enrichment score” 1.65.
For `HKTFRALRLFDTP [K6A]`, “normalised enrichment score” read 2.27.
For `HKPFRKLRLFDTP [T3P]`, “normalised enrichment score” read 2.04.
Under “normalised enrichment score”, `HSTFRKLRLFDTP [K2S]` is recorded as 2.54.
`HKDFRKLRLFDTP [T3D]`: “normalised enrichment score” 0.805.
`HKTFRKLRLFDTC [P13C]` — result for “normalised enrichment score”: 3.03.
`HKTFRKLRFFDTP [L9F]`: “normalised enrichment score” 5.27.
`DKTFRKLRLFDTP [H1D]` — result for “normalised enrichment score”: 1.97.
`IKTFRKLRLFDTP [H1I]`: “normalised enrichment score” 3.15.
Under “normalised enrichment score”, `HKTFRKLALFDTP [R8A]` is recorded as 2.24.
`NKTFRKLRLFDTP [H1N]`: “normalised enrichment score” 2.34.

Set 2
Target: Histone acetyltransferase KAT6A, winged helix 1, GST fusion (KAT6A, Homo sapiens, UniProt Q92794, residues 1-85)
Method: protein binding microarray
Form: double-stranded DNA, one strand shown
Sample: in vitro
Concentration: not given
Notes: 8-mer, flanks averaged, mean of 2 arrays, mostly near background
Baseline: not given
Reading: higher = stronger binding
Construct (chain): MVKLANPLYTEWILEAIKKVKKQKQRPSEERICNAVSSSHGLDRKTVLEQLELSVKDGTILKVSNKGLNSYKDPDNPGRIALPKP
For `ATCGACTA`, the E-score was -0.211.
For `CTCTTGAA`, the E-score was -0.251.
With `GGAGGCTA` the E-score was 0.0878.
With `CCTGTGAG` the E-score was -0.185.
For `ACCTCTGG`, the E-score was -0.222.
For `GCTAGCAA`, the E-score was -0.031.
For `AACATGAC`, the E-score was -0.000135.
`CGCCGTAG` gave an E-score of 0.427.
`CGTAATGA` gave an E-score of 0.132.
`ATGCCGAC` gave an E-score of 0.347.
`ATTAATAA` has an E-score of 0.00249.
`CCCGACCC` has an E-score of 0.153.
With `CCTGATAA` the E-score was -0.221.
With `CACGAAAA` the E-score was -0.159.
`GCCACCTA` gave an E-score of -0.0389.
With `AAGGGCCC` the E-score was 0.0396.
`ATATGGTC` gave an E-score of -0.178.
`AGTTAGTG` gave an E-score of -0.183.
`GCGCTAAA` has an E-score of 0.275.
With `AACTCAGG` the E-score was -0.229.
`ACAGCATA` gave an E-score of -0.0911.
With `GCGCTGCC` the E-score was 0.339.
The E-score of `GATACAAC` is reported as -0.00114.
For `AGCGAAGA`, the E-score was -0.0605.
For `ACCCCAAT`, the E-score was -0.238.

Set 3
Target: Sal-like protein 4, full length isoform A (SALL4, Homo sapiens, UniProt Q9UJQ4, residues 1-1053)
UniProt Q9UJQ4, sequence (whole entry, looked up): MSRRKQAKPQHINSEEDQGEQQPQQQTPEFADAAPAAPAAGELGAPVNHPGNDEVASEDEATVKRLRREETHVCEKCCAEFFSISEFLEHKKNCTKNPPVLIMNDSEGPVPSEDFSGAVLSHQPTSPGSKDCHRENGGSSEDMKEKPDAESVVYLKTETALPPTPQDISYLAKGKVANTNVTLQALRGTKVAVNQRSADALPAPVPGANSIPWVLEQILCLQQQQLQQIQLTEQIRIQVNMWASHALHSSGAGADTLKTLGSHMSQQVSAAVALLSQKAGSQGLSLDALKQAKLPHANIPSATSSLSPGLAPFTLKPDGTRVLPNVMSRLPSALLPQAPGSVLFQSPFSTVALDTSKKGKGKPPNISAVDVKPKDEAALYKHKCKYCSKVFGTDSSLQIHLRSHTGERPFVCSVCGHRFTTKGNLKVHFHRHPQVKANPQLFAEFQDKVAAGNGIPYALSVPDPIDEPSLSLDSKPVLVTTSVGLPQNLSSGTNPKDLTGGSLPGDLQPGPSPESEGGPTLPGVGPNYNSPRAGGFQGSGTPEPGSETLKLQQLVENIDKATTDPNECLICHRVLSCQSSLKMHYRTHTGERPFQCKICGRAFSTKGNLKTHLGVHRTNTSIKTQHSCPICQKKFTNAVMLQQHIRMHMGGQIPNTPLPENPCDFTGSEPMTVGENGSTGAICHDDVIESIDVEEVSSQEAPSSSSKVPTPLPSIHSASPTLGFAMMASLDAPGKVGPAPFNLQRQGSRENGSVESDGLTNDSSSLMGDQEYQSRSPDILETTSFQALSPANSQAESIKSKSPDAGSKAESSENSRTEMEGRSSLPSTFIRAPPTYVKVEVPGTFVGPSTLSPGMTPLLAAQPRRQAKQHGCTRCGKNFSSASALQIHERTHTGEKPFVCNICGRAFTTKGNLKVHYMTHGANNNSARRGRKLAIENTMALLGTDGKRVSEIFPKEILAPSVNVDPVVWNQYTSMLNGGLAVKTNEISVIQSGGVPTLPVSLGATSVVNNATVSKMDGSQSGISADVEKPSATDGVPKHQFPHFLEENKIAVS
Method: universal PBM
Form: double-stranded DNA, one strand shown
Sample: in vitro
Concentration: 600 nM
Notes: 8-mer, flanks averaged, mean of replicates
Reading: higher = stronger binding
The E-score of `GCCCCTGA` is reported as -0.256.
With `GAAACTGA` the E-score was -0.048.
`AATAGGGC` has an E-score of -0.0283.
With `TAGAAGGA` the E-score was -0.04.
`CACTAAGG` has an E-score of -0.111.
`CAGGGGGA` has an E-score of -0.265.
With `AGAGAGAC` the E-score was -0.163.
The E-score of `TCTTTCAA` is reported as 0.108.
For `CGCCCGAC`, the E-score was -0.303.
For `CGCGTCCA`, the E-score was -0.216.
`AGAGATCT` has an E-score of 0.0177.
For `ACTGCCTA`, the E-score was 0.0117.
The E-score of `GTTACCCA` is reported as -0.141.
`AGGTGTCC` has an E-score of -0.225.
With `ACACGGTA` the E-score was -0.107.
`CAAGACGG` gave an E-score of -0.182.
The E-score of `GATAGGTA` is reported as 0.17.

Set 4
Target: ABI1, truncated, D143A, DHFR fusion (Arabidopsis thaliana)
Method: DHFR PCA, deep sequencing
Sample: yeast
Notes: methotrexate growth selection, single substitutions
Added: (+)-ABA 58 µM
Baseline: wild-type fitted maximum
Reading: higher = stronger binding
Parent: PYL1, truncated, DHFR fusion (Arabidopsis thaliana); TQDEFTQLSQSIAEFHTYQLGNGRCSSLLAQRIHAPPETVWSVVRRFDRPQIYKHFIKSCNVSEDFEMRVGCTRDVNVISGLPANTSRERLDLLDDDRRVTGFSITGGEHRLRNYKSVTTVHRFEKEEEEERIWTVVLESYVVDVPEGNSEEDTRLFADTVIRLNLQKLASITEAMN
`S80L`: “relative binding score” -0.234%.
Under “relative binding score”, `R49P` is recorded as 13.7%.
Under “relative binding score”, `V70I` is recorded as 82.1%.
`R111E` — result for “relative binding score”: 15.3%.
`Q31L`: “relative binding score” 18.2%.
`F15T` — result for “relative binding score”: 29.7%.
Under “relative binding score”, `W41D` is recorded as -15.2%.
`C60R`: “relative binding score” 14.3%.
`K58P`: “relative binding score” 11.6%.
`H122E`: “relative binding score” 63.8%.
For `S80R`, “relative binding score” read 20.6%.
For `A35Q`, “relative binding score” read 28.7%.
Under “relative binding score”, `Q19C` is recorded as 83.9%.
Under “relative binding score”, `V78W` is recorded as 32.4%.
`S59P` — result for “relative binding score”: 11.8%.
Under “relative binding score”, `K54L` is recorded as -3.87%.
`T106S` — result for “relative binding score”: 59.6%.
`D75A`: “relative binding score” 78.6%.
`H122N` — result for “relative binding score”: 47.8%.
Under “relative binding score”, `L169I` is recorded as 19.5%.
For `T101N`, “relative binding score” read 1.13%.
For `R123W`, “relative binding score” read 70.2%.

Set 5
Target: Interferon regulatory factor 7, full length, phosphomimetic (IRF7, Homo sapiens, UniProt Q92985, residues 1-503, S101K/S471D/S472D/S475D/S476D/S477D/S483D/S484D/S487D)
Method: protein-binding microarray
Form: double-stranded DNA, one strand shown
Sample: in vitro
Concentration: 250 nM
Notes: 60-bp whole probe
Added: salmon DNA 0.4 mg/ml
Baseline: random background probes
Reading: higher = stronger binding
Shared flanks, not repeated: GCCTAGCAC … GTCTTGATTCGCTTGACGCTGCTG
Residues (chain): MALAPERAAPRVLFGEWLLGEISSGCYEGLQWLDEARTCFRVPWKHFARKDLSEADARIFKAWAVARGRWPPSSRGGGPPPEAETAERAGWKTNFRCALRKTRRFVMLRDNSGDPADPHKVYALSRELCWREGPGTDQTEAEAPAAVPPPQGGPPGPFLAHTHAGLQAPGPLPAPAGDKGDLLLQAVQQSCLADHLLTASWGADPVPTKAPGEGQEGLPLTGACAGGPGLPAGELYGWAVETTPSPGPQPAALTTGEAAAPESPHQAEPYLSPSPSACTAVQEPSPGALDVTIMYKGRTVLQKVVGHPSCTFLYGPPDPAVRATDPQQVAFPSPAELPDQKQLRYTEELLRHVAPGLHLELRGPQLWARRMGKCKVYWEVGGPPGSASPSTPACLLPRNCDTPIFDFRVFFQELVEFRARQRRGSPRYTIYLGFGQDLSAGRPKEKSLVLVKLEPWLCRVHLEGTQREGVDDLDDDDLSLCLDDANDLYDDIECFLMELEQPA
The log fluorescence of `TTAGATTTCAGCTCCGATTAGTGCTAG` is reported as 0.482 z-score.
For `GAGAGTAGCTTTCTGAGGGCGTGCTAG`, the log fluorescence was -0.527 z-score.
`TTAGGACTGCTTATCTTTTAGTGCTAG` gave a log fluorescence of -0.193 z-score.
`TTAGATTTCAGGTTCGATTAGTGCTAG` gave a log fluorescence of 2.54 z-score.
For `GACGGTTCCCTTTTCCTAACGTGCTAG`, the log fluorescence was 3.5 z-score.
For `GACGAACTGGGGACTGGAGGCGTGCTA`, the log fluorescence was -0.738 z-score.
`TTAGATATCAGTATCAATTAGTGCTAG` has a log fluorescence of 0.0633 z-score.
For `GACGATTTCAGTATCGAGTCGTGCTAG`, the log fluorescence was 1 z-score.
For `TTAGGTATCGGTATCGATTAGTGCTAG`, the log fluorescence was 2.7 z-score.
`GACTGACTGGGGACTGGGGACGTGCTA` gave a log fluorescence of -0.375 z-score.
`TTAGTTCTGAGTCTTCCCTTGTGCTAG` gave a log fluorescence of 0.506 z-score.
For `TTAGAACTGGAGTTTCGATTAGTGCTA`, the log fluorescence was 7.37 z-score.
`GTAGGTATCCTACTGCTTTAGTGCTAG` has a log fluorescence of -0.275 z-score.
`TTAGGTATCGGGTATCCGTTAGTGCTA` has a log fluorescence of 0.945 z-score.
With `TTAGGTTTCGGTTCCGGGTAGTGCTAG` the log fluorescence was 12.4 z-score.
For `CCCTGTGTCCACAGCTGGATGTGCTAG`, the log fluorescence was 0.0546 z-score.
`GTCGGACTGCTACTGCTGACGTGCTAG` gave a log fluorescence of -0.504 z-score.
`TCACTTTTCTGTTGTCTGACTGTGCTA` has a log fluorescence of 1.58 z-score.

Set 6
Substance: PhoQ, residues 284 288 289 292 302 303 AGGCYF
Method: Sort-seq
Item: YFP reporter
Sample: E. coli
Notes: PhoQ-PhoP variant library
Added: 10 µM Mg2+
Baseline: high Mg2+ state
Reading: higher = stronger signaling
For PhoP, residues 12 14 15 18 19 TPWTL (Escherichia coli, UniProt P23836): fold induction read 1.36.
For PhoP, residues 12 14 15 18 19 VGHWL (Escherichia coli, UniProt P23836): fold induction read 2.28.
PhoP, residues 12 14 15 18 19 NFFVT (Escherichia coli, UniProt P23836) — fold induction: 6.58.
The fold induction was 30.7 (PhoP, residues 12 14 15 18 19 LHHYF (Escherichia coli, UniProt P23836)).

Excerpt of the above (set 3):
The E-score of `TCTTTCAA` is reported as 0.108.
For `CGCCCGAC`, the E-score was -0.303.
For `CGCGTCCA`, the E-score was -0.216.
`AGAGATCT` has an E-score of 0.0177.
For `ACTGCCTA`, the E-score was 0.0117.
The E-score of `GTTACCCA` is reported as -0.141.
`AGGTGTCC` has an E-score of -0.225.
With `ACACGGTA` the E-score was -0.107.
